Experimental data from different studies.
Parts stem from different laboratories: compare values within a part only.
UniProt P46098, sequence (whole entry, looked up): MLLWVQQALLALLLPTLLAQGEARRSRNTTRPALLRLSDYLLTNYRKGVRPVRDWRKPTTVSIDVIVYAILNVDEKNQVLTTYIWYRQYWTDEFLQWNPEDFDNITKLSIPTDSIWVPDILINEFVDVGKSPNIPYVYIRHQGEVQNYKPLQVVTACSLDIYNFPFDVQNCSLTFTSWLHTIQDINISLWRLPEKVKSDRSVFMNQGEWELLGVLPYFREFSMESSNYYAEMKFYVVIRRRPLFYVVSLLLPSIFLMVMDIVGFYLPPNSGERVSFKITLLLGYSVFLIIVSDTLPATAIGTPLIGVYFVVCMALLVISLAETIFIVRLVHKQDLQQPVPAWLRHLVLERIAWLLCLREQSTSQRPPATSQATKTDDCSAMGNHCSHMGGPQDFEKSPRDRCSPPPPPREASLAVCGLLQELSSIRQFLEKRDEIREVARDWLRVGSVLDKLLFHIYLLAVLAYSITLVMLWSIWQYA
UniProt P00519, sequence (whole entry, unmodified, looked up): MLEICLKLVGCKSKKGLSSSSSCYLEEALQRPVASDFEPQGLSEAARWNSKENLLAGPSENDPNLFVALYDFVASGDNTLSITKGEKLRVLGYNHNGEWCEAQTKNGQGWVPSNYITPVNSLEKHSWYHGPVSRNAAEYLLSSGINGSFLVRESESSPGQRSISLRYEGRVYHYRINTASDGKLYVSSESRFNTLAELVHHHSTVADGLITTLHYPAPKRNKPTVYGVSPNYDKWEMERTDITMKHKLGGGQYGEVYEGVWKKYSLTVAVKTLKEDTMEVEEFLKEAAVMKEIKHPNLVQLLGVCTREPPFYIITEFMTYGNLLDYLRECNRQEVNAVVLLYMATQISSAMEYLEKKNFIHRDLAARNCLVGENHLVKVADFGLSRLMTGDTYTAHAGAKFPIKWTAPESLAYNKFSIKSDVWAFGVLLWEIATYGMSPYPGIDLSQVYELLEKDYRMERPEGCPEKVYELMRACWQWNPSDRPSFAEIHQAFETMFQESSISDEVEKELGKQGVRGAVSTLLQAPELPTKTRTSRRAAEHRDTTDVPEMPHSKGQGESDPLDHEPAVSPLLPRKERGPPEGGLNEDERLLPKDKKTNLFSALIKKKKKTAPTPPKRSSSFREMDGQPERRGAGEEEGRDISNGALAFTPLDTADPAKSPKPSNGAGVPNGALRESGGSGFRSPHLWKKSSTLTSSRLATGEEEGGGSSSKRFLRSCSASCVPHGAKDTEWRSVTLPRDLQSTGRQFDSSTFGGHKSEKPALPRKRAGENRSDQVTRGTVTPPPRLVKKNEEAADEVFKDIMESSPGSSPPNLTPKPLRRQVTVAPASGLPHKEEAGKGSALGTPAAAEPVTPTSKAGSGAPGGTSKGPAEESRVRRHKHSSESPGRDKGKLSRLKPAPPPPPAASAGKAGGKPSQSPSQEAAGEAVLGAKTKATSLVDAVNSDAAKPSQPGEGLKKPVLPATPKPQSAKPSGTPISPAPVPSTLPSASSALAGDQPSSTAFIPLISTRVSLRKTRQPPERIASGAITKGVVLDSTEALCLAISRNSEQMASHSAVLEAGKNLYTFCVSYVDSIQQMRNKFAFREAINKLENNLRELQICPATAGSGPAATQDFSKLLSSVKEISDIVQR

Block 1 — technique: competition protein-binding microarray; molecule type: double-stranded DNA, one strand shown; medium: in vitro; tested at: 2 µM; together with: Cbf1 competitor, 0.05 µM; reading: higher = stronger binding
Target: Phosphate system positive regulatory protein PHO4, full length, GST-tagged (PHO4, Saccharomyces cerevisiae, UniProt P07270, residues 1-312)
Setting: whole 60-bp probe, lowest competitor level
Target sequence (chain): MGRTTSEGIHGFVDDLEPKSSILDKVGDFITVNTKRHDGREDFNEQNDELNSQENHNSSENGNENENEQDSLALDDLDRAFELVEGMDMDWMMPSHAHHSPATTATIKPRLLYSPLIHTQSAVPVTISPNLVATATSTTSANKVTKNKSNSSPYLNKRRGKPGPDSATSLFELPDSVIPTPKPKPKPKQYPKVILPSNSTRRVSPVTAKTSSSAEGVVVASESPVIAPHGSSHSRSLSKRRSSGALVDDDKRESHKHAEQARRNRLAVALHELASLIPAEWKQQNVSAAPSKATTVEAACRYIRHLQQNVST
`CTCCCTGGGCGGCTGCACGTGCTGGCTGGCTCCTCCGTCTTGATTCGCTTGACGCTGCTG` gave a fluorescence intensity of 17100 a.u.
`CCTTTCCAGATGGCTCACATGTCCGGTCGTCCTCCAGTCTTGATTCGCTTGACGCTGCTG` gave a fluorescence intensity of 7370 a.u.
The fluorescence intensity of `TGCGCAACAACTTGTCACAGGACTTTATGTCTAGAAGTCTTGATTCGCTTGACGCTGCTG` is reported as 3050 a.u.
`GTCTTGTCTCATTGCGGGGTGGGTGTCCCCACTTCAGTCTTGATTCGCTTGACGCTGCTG` gave a fluorescence intensity of 4100 a.u.
`TGAAGACAACTCGGCCACGTGGGTAAAAGAAGAAGCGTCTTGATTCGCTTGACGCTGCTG` has a fluorescence intensity of 20200 a.u.
`AAAAACTCCAAGGAACGCGTGTCGGCCGTAATCGTTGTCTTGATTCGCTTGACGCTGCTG` gave a fluorescence intensity of 8830 a.u.
With `GATCCCGCTCCTTGGCGTGTTCATTCTGTTACGATCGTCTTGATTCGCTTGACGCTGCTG` the fluorescence intensity was 4830 a.u.
`TGTTGCTGTTCGCGTCAGCTGAGGCTGAGTATCGTTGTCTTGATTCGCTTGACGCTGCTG` has a fluorescence intensity of 2730 a.u.

Block 2 — technique: RNA Bind-n-Seq; molecule type: RNA; medium: in vitro; tested at: 365 nM; reference: no-protein control; reading: higher = stronger binding
Target: RNA binding protein fox-1 homolog 2, RRM domain, GST-SBP tag (RBFOX2, Homo sapiens, UniProt O43251-10, residues 100-194)
Setting: natural RNA segment, single round, ends assumed
Residues (chain): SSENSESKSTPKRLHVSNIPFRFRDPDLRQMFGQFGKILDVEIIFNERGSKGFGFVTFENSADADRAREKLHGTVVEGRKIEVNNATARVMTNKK
For `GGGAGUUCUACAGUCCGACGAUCGGAGGGAGGGUCUCUCUGCUGGCACUGUCUAACUUGCUUACCUGCUGACUUUGCAGUUUGCUUGUGCUAUGACAUUUAUUGUAGGUGCUAUUUAGGGUAGGCUUAAAGUGUGGAAUUCUCGGGUGCCAA`, “RBNS enrichment (R)” read 0.313.
`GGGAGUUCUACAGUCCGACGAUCAGAAUCCAGAGACCAAACCCUGACCCACCUCCUUCCUUUCCUCCAGCCCACGCUGGUCUGUCCCCAUGCCUUCCCAGGGCUUCUUCAUGUCGGAUGCACCCAAGUCCUUAUGGAAUUCUCGGGUGCCAA`: “RBNS enrichment (R)” 0.837.
`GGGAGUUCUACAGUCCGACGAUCAGAAAGGGACUUUUUUUCCUUUCUUUUCAUAAUGAAGCAGAUCAACUUAAAGGAUAAUAAAAUUUUUAAAGAAAAGAUAUUCUAAUGUACUCUCAAUAAUUCUACAGAAAUGGAAUUCUCGGGUGCCAA`: “RBNS enrichment (R)” 0.763.
Under “RBNS enrichment (R)”, `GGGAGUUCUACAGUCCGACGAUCAGCCUUCUCCCCCUCCACUCUCUGCCUGUAGGAUGUACUGUAUGUAGUCAUGCACUUUGUAUUAAUAUAUUAGAAAUCUACAGAUCUGUUUUGUACUUUUUAUACUGUUGUGGAAUUCUCGGGUGCCAA` is recorded as 1.25.
`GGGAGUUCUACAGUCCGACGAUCUACUAACUUAUUUAUGUUAAAAGAUUUUUUUUAAUCUAGACAAUAUACAAGCCAAAGUGGCAUGUUUUGUGCAUUUGUAAAUGCUGUGUUGGGUAGAAUAGGUUUUCCCCUGGAAUUCUCGGGUGCCAA` — result for “RBNS enrichment (R)”: 0.708.
Under “RBNS enrichment (R)”, `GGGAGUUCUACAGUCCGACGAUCUGCUACUCCCAGGAAAUGGGCUCCUGACACAGCAGUCUGCCACCACAGCCCCAGGAGGGUGUCAACACCAGCAAAUGCUGUAUUUGCAGCAUGUCCAAGAUGACCCUUCUUGGAAUUCUCGGGUGCCAA` is recorded as 0.36.
`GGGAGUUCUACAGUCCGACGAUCACUGGGAGCUUGCACUAUGCAGCUCCAGUUUCCUGCAGUGAUCAGGGUCCUGCAAGCAGUGGGGAAGGGGGCCAAGGUAUUGGAGGACUCCCUCCCAGCUUUGGAAGCCUUGGAAUUCUCGGGUGCCAA`: “RBNS enrichment (R)” 0.974.
For `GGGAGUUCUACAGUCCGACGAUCAUGGCUUUCAUCCUGUGUCCCCUGACCUGUCCAGGUGAGUGUGAGGGCAGCACUGGGAAGCUGGAGUGCUGCUUGUGCCUCCCUUCCCAGUGGGCUGUGUUGACUGCUGCUGGAAUUCUCGGGUGCCAA`, “RBNS enrichment (R)” read 0.359.

Block 3 — read-out: enzyme activity; mode: inhibitor; tested at: 0.5 µM; reference: control
Target: Protein kinase C gamma type (PRKCG, Homo sapiens, UniProt P05129)
The remaining activity of `Cc1ccc(Nc2nccc(N(C)c3ccc4c(C)n(C)nc4c3)n2)cc1S(N)(=O)=O` is reported as 93.5%.
`O=C(O)c1ccc2c3c1cccc3c(=O)n1c3ccccc3nc21` gave a remaining activity of 99.1%.
For `COc1ccc(CNC(=O)Nc2ncc([N+](=O)[O-])s2)cc1`, the remaining activity was 99.8%.
`Cc1cccc(-c2[nH]c(C(C)(C)C)nc2-c2ccc3c(c2)OCO3)n1` gave a remaining activity of 107%.
`COc1cc2ncnc(Nc3ccc(F)c(Cl)c3)c2cc1OCCCN1CCOCC1` gave a remaining activity of 84.2%.
`Cc1nc(-c2ccccc2)c(-c2ccncc2)o1` has a remaining activity of 101%.
The remaining activity of `COc1cc2nccc(Oc3ccc(NC(=S)NC(=O)c4ccccc4C)cc3)c2cc1OC` is reported as 100%.
`O=C(CCCc1ccc(-c2ccccc2F)cc1)Nc1ccc(O)cc1` has a remaining activity of 98%.
The remaining activity of `N#CC(C#N)=C(N)/C(C#N)=C/c1ccc(O)cc1` is reported as 105%.
`O=c1c2ccccc2[nH]c(=S)n1CCN1CCC(=C(c2ccc(F)cc2)c2ccc(F)cc2)CC1` gave a remaining activity of 100%.
The remaining activity of `C#Cc1cccc(Nc2ncnc3cc(OCCOC)c(OCCOC)cc23)c1` is reported as 84.1%.
`CO[C@H]1C[C@@H]2CC[C@@H](C)[C@@](O)(O2)C(=O)C(=O)N2CCCC[C@H]2C(=O)O[C@H]([C@H](C)C[C@@H]2CC[C@@H](O)[C@H](OC)C2)CC(=O)[C@H](C)/C=C(\C)[C@@H](O)[C@@H](OC)C(=O)[C@H](C)C[C@H](C)/C=C/C=C/C=C/1C` gave a remaining activity of 106%.
The remaining activity of `CNC(=O)c1cc(Oc2ccc(NC(=O)Nc3ccc(Cl)c(C(F)(F)F)c3)cc2)ccn1` is reported as 94.7%.
`CC(C)[C@H](CO)Nc1nc(Nc2cc(N)cc(Cl)c2)c2ncn(C(C)C)c2n1` has a remaining activity of 107%.
For `O=C1NC(=O)C(c2cn(CCCO)c3ncccc23)=C1c1cnccn1`, the remaining activity was 93.1%.

Other studies, line by line
With `CNC(=O)Nc1ccc2c(c1)CC[C@]21OC(=O)N(CC(=O)N(Cc2ccc(F)cc2)[C@@H](C)C(F)(F)F)C1=O` the remaining binding was 87% (ABL1 (Homo sapiens, UniProt P00519, F317I); KINOMEscan; 1 µM, F317I mutant, phosphorylated; reference: control).
With `C[C@@H]1CN(c2cc(-c3nn(C)c4ccc(OC5(C)CC5)cc34)ncn2)C[C@H](C)O1` the inhibition was -3.11% (HTR3A (Homo sapiens, UniProt P46098); binding, radioligand binding; 10 µM).

A few entries again (block 1):
With `GATCCCGCTCCTTGGCGTGTTCATTCTGTTACGATCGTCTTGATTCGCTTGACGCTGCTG` the fluorescence intensity was 4830 a.u.
`GTCTTGTCTCATTGCGGGGTGGGTGTCCCCACTTCAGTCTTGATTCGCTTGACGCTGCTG` gave a fluorescence intensity of 4100 a.u.
The fluorescence intensity of `TGCGCAACAACTTGTCACAGGACTTTATGTCTAGAAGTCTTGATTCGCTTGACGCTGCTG` is reported as 3050 a.u.
`TGAAGACAACTCGGCCACGTGGGTAAAAGAAGAAGCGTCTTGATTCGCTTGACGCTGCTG` has a fluorescence intensity of 20200 a.u.
